Experimental data collected from several papers.
Numbers after ± are the reported error.
4'-phosphopantetheinyl transferase PptT: 4'-phosphopantetheinyl transferase PptT (Mycobacterium tuberculosis, UniProt O33336)
Sequence of UniProt O33336 (whole entry, looked up): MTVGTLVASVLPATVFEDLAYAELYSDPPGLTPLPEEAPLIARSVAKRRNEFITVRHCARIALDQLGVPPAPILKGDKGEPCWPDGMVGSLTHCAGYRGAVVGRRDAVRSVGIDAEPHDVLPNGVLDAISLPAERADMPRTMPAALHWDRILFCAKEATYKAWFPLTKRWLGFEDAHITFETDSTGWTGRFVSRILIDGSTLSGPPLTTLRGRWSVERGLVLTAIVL
SCRIB PDZ3 domain: Protein scribble homolog, PDZ3 domain (SCRIB, Homo sapiens, UniProt Q14160)
Sequence of UniProt Q14160 (whole entry, looked up): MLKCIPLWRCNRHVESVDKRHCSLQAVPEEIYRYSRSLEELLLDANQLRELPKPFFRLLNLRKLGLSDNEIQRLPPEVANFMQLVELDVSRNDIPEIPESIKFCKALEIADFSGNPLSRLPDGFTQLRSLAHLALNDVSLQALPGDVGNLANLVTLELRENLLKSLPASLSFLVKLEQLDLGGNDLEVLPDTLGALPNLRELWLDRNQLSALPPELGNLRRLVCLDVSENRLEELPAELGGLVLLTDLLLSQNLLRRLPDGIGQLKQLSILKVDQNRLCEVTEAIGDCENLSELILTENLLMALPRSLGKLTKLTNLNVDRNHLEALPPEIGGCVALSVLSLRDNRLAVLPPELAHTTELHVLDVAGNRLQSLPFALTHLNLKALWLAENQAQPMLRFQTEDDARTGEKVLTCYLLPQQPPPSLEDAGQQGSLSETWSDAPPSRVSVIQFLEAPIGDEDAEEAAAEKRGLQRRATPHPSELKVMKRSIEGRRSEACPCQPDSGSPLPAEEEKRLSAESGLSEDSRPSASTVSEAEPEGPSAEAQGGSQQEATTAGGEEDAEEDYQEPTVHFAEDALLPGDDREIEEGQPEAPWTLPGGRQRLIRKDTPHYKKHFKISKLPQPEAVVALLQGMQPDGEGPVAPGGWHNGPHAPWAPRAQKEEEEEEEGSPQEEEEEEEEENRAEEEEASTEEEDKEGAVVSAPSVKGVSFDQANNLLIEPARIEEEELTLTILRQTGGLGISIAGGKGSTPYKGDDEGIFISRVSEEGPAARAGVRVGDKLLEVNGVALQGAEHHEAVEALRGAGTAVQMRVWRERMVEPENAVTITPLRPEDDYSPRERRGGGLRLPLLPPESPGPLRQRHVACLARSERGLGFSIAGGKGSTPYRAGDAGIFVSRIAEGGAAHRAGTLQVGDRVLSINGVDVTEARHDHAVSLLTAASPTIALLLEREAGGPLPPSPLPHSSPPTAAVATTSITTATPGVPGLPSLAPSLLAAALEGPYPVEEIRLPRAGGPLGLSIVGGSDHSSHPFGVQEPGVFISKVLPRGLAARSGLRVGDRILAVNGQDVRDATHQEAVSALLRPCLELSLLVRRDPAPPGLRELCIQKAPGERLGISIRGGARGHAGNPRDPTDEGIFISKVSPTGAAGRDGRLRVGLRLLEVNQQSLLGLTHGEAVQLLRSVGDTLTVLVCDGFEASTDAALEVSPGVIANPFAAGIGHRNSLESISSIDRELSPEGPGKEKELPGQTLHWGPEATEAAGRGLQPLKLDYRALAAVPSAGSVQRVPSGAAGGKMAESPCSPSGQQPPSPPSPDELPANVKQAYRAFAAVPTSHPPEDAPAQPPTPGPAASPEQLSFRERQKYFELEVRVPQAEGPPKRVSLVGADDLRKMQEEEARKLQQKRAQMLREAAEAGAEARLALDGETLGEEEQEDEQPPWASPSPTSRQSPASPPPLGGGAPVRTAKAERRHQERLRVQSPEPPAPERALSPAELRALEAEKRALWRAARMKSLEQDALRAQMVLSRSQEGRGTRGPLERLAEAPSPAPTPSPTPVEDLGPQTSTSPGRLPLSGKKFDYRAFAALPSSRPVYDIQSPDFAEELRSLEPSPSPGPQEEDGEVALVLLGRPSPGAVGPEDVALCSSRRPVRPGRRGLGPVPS
Sequence of UniProt Q7M4L6 (whole entry, looked up): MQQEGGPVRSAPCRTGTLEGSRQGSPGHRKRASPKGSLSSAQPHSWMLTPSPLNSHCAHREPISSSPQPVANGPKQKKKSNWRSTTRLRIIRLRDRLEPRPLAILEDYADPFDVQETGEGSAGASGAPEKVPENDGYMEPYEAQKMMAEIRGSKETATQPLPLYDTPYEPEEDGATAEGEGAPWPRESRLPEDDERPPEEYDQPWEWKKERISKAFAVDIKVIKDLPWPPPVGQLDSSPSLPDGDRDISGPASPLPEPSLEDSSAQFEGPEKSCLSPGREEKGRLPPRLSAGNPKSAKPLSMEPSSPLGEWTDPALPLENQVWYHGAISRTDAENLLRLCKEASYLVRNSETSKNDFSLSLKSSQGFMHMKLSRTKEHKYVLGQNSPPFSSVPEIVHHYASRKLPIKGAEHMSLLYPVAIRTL
Sequence of UniProt Q02153 (whole entry, unmodified, looked up): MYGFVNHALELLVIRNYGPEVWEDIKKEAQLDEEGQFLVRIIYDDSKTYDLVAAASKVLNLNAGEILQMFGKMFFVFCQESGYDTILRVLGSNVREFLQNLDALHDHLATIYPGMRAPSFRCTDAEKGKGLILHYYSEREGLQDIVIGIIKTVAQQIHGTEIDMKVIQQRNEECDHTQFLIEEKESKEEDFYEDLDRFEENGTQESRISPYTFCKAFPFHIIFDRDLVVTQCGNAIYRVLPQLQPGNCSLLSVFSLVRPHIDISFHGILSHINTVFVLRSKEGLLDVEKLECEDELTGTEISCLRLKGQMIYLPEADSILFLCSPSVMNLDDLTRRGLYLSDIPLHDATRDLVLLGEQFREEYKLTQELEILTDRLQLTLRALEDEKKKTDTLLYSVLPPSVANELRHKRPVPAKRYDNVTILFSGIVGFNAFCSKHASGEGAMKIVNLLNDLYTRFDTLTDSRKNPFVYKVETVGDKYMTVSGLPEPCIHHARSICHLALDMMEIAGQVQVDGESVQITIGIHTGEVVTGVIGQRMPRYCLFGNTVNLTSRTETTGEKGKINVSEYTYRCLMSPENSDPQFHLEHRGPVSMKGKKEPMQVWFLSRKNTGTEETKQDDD
Sequence of UniProt P02716 (whole entry, unmodified, looked up): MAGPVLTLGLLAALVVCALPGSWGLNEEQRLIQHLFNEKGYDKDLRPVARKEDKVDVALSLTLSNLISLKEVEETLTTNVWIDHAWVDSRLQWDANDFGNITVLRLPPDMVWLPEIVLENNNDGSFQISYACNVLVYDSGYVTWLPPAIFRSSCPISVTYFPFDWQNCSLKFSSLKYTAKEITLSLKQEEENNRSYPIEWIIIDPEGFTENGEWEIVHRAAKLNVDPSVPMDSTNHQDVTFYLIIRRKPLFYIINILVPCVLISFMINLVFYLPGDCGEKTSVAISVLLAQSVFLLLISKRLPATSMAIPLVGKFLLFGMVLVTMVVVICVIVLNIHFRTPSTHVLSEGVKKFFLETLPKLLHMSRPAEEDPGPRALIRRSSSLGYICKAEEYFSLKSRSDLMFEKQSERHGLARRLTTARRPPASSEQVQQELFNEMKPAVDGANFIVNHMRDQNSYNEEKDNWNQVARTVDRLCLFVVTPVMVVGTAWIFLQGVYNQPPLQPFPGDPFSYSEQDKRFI
Sequence of UniProt P04756 (whole entry, unmodified, looked up): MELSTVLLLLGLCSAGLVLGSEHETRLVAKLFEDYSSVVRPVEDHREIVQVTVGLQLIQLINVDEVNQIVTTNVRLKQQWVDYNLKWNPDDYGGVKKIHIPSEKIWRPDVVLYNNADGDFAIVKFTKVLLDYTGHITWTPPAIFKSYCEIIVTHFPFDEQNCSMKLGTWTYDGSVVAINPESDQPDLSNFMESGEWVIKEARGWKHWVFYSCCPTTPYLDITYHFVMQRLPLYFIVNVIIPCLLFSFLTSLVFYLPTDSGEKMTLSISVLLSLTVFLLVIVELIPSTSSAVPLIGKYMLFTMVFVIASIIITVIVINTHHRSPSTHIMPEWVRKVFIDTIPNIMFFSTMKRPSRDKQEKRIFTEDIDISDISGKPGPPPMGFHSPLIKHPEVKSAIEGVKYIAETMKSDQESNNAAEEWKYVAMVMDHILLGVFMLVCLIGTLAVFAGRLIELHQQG
Sequence of UniProt P20782 (whole entry, unmodified, looked up): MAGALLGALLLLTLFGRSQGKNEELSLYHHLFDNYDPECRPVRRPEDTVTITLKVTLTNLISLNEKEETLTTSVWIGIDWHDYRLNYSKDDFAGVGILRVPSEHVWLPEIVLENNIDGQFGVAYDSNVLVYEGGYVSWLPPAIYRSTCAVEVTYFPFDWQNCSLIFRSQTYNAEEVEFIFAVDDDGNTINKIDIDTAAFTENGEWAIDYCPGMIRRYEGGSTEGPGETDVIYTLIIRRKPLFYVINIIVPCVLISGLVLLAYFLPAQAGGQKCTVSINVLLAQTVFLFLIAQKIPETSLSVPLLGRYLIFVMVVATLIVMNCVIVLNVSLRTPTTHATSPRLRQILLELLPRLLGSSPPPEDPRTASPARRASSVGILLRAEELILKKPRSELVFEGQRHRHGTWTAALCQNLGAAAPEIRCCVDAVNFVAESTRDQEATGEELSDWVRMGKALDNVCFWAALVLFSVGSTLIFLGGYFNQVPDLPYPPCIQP
Sequence of UniProt P53634 (whole entry, looked up): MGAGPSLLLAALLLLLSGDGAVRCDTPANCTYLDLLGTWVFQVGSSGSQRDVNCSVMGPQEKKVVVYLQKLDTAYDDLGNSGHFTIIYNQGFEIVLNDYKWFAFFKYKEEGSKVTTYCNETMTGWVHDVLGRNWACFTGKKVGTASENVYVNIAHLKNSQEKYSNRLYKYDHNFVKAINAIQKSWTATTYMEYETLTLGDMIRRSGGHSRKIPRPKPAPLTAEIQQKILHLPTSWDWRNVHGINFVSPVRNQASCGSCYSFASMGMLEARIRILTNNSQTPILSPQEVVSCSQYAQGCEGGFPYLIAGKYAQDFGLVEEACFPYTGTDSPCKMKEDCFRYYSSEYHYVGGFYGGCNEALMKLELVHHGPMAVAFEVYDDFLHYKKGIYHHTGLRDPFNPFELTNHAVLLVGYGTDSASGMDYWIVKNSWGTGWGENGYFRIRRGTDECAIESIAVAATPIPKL

`CCNC(=N)NC(=O)Nc1ccc(Cl)cc1C(F)(F)F` has an IC50 of 12.5 µM (4'-phosphopantetheinyl transferase PptT; inhibitor).
`O=C(O)c1ccc(CN2C(=O)CN(C(=O)c3ccco3)c3cc(-c4ccccc4)c(Oc4ccc(C(=O)O)cc4)cc32)cc1` gave an EC50 of 1.8 µM (Soluble guanylate cyclase alpha1/beta1 complex (Homo sapiens, UniProt Q02108+Q02153, H105A); enzyme activity, activator).
`CCNC(=N)NC(=O)Nc1c(Cl)cc(Cl)cc1Cl` gave an IC50 of 37.5 µM (4'-phosphopantetheinyl transferase PptT; inhibitor).
For `CSCC[C@H](NC(=O)[C@H](CCCNC(=N)N)NC(=O)[C@H](CCCCN)NC(=O)[C@H](CCC(=O)O)NC(=O)[C@H](C)NC(=O)[C@@H](N)Cc1ccc(O)cc1)C(=O)N[C@@H](CC(C)C)C(=O)N[C@H](C(=O)N[C@@H](CCC(=O)O)C(=O)N[C@H](C(=O)O)C(C)C)[C@@H](C)O`, the Kd was 34.8 µM (SCRIB PDZ3 domain; binding, fluorescence polarization; solution; Scribble PDZ3 domain).
`C[N+](C)(C)C` gave a Kd of 100 µM (Chrnd/Chrna1/Chrne (Mus musculus, UniProt P02716+P04756+P20782, G173P/S470W); single-channel kinetics; P chain side site).
With `CC[C@H](C)[C@H](NC(=O)[C@H](CC(C)C)NC(=O)[C@H](CCC(N)=O)NC(=O)[C@H](CCSC)NC(=O)[C@H](CC(N)=O)NC(=O)[C@H](Cc1ccccc1)NC(=O)[C@@H](N)CO)C(=O)N[C@@H](CO)C(=O)N[C@@H](CCC(N)=O)C(=O)N[C@H](C(=O)O)C(C)C` the Kd was 39.3 µM (SCRIB PDZ3 domain; binding, fluorescence polarization; solution; Scribble PDZ3 domain).
The IC50 of `CCCCCNC(=N)NC(=O)Nc1c(CC)cccc1CC` is reported as > 100 µM (4'-phosphopantetheinyl transferase PptT; inhibitor).
`CC[C@H](C)[C@H](NC(=O)[C@H](CO)NC(=O)[C@H](CO)NC(=O)[C@H](CCC(=O)O)NC(=O)[C@H](C)NC(=O)[C@H](CO)NC(=O)[C@H](C)NC(=O)[C@@H](NC(=O)[C@H](CC(=O)O)NC(=O)[C@@H](N)C(C)C)[C@@H](C)CC)C(=O)O` gave a Kd of 13.6 µM (SCRIB PDZ3 domain; binding, fluorescence polarization; solution; Scribble PDZ3 domain).
With `CCCc1cc(O)c2c(c1)OC(C)(C)[C@@H]1CCC(C)=C[C@@H]21` the EC50 was 6.04 ± 0.19 µM (Transient receptor potential cation channel subfamily V member 3 (TRPV3, Homo sapiens, UniProt Q8NET8, L563A); calcium uptake, agonist; HEK293S; mutant L563A, site 1).
`CCNC(=NC(=O)OC(C)(C)C)NC(=O)Nc1c(CC)cc(C(=O)NC)cc1CC` has an IC50 of > 100 µM (4'-phosphopantetheinyl transferase PptT; inhibitor).
With `CC(C)C[C@H](NC(=O)[C@H](CCCNC(=N)N)NC(=O)[C@@H]1CCCN1C(=O)[C@H](Cc1c[nH]cn1)NC(=O)[C@H](CO)NC(=O)[C@@H]1CCCN1)C(=O)N[C@@H](CCC(N)=O)C(=O)N[C@H](C(=O)N[C@@H](Cc1c[nH]cn1)C(=O)N[C@H](C(=O)O)C(C)C)[C@@H](C)O` the Kd was 21.3 µM (SCRIB PDZ3 domain; binding, fluorescence polarization; solution; Scribble PDZ3 domain).
The IC50 of `CCCCNC(=N)NC(=O)Nc1c(CC)cccc1CC` is reported as 37.6 µM (4'-phosphopantetheinyl transferase PptT; inhibitor).
`O=C(O)CNCP(=O)(O)O` gave a Ki of 0.06 ± 0.007 µM (EPSP synthase (Zea mays, UniProt A0A1D6NVZ6)).
`CC[C@H](C)[C@H](N)C(=O)N[C@@H](CC(C)C)C(=O)N[C@@H](CCCNC(=N)N)C(=O)N[C@@H](CCCCN)C(=O)N[C@@H](CO)C(=O)N[C@H](C(=O)N[C@H](C(=O)N[C@H](C(=O)N[C@H](C(=O)N[C@H](C(=O)O)C(C)C)[C@@H](C)O)[C@@H](C)O)[C@@H](C)O)[C@@H](C)O` has a Kd of 40.1 µM (SCRIB PDZ3 domain; binding, fluorescence polarization; solution; Scribble PDZ3 domain).
`COc1cc(Nc2ncc(F)c(Nc3ccc4c(n3)NC(=O)C(C)(C)O4)n2)cc(OC)c1OC` has an IC50 of > 10 µM (Dipeptidyl peptidase 1 (CTSC, Homo sapiens, UniProt P53634)).
For `CCNC(=N)NC(=O)Nc1ccc2c(c1)OCCO2`, the IC50 was > 100 µM (4'-phosphopantetheinyl transferase PptT; inhibitor).
The Kd of `CC(C)C[C@H](NC(=O)[C@@H](NC(=O)CNC(=O)[C@H](CC(N)=O)NC(=O)[C@H](CCCCN)NC(=O)[C@H](CO)NC(=O)[C@H](CC(=O)O)NC(=O)[C@H](Cc1ccc(O)cc1)NC(=O)[C@@H](N)CCCNC(=N)N)[C@@H](C)O)C(=O)N[C@H](C(=O)O)C(C)C` is reported as 26.5 µM (SCRIB PDZ3 domain; binding, fluorescence polarization; solution; Scribble PDZ3 domain).
The Kd of `CSCC[C@H](NC(=O)CNC(=O)[C@H](Cc1ccccc1)NC(=O)[C@H](CC(=O)O)NC(=O)CNC(=O)c1ccc2c(c1)C(=O)OC21c2ccc(N(C)C)cc2Oc2cc(N(C)C)ccc21)C(=O)N[C@@H](CO)C(=O)N[C@@H](CCCNC(=N)N)C(=O)N[C@@H](CC(=O)O)C(=O)N[C@H](C(=O)N[C@@H](Cc1ccc(OP(=O)(O)O)cc1)C(=O)N[C@@H](CO)C(=O)N[C@H](C(=O)N[C@@H](CC(=O)O)C(=O)N[C@@H](Cc1ccc(O)cc1)C(=O)N[C@@H](Cc1ccc(O)cc1)C(=O)N[C@@H](CCCNC(=N)N)C(=O)N[C@H](C(=O)N[C@@H](CC(=O)O)C(=O)O)C(C)C)[C@@H](C)O)C(C)C` is reported as 1.4 µM (SH2 domain-containing adapter protein F, SH2 domain (SHF, Homo sapiens, UniProt Q7M4L6); binding).

Excerpt of the above:
With `CCCc1cc(O)c2c(c1)OC(C)(C)[C@@H]1CCC(C)=C[C@@H]21` the EC50 was 6.04 ± 0.19 µM (Transient receptor potential cation channel subfamily V member 3 (TRPV3, Homo sapiens, UniProt Q8NET8, L563A); calcium uptake, agonist; HEK293S; mutant L563A, site 1).
`CCNC(=NC(=O)OC(C)(C)C)NC(=O)Nc1c(CC)cc(C(=O)NC)cc1CC` has an IC50 of > 100 µM (4'-phosphopantetheinyl transferase PptT; inhibitor).
